Assay results of several laboratories.
Each numbered part is a random draw from the data of one study; scales do not carry over between parts.

Set 1 — method: RNA Bind-n-Seq; form: RNA; sample: in vitro; tested at: not given; relative to: input RNA pool; direction: higher = stronger binding
Target: RING finger protein unkempt homolog, zinc fingers 1-6, GST-SBP tag (UNK, Homo sapiens, UniProt Q9C0B0, residues 30-357)
Sequence of UniProt Q9C0B0 (30-357, looked up): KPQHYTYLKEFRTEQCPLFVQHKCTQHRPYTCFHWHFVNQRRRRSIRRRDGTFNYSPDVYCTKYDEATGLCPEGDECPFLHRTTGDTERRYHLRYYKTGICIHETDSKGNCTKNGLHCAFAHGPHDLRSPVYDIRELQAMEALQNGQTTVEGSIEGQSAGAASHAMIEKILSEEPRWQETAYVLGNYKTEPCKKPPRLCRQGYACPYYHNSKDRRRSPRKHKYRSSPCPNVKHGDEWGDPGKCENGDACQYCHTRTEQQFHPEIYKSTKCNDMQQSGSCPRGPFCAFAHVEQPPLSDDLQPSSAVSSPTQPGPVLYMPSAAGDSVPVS
Setting: RNA with constant flanks, human-mouse chimeric sites, ends assumed
Constant ends, left off below: GGGAGUUCUACAGUCCGACGAUC … CAACAGAGGAUUGAGCAUCA
| Oligonucleotide | bound/input enrichment |
| --- | --- |
| AAAGAGUGGAUAGAGUGUGCACACGGGAUCGGUUAUACCCGGGCGAAGAAAGAGUGCAAGAUAGAGUUCGAUGACUUCGAAGAGUGCUUGCUUCGGUACAAAACGAUGAGGCGAAUGCAU | 0.383 ratio |
| UUACCCGAGAACGAGGAUGAGCUGGAGAGCACCAAUAGGCGCUACACCAAGAGGGACUGUAGCACUUUCCUCAGAACUAGUGAGACGGGCAUCGUGGACCAGGUCAUGGUCACUCUCAAC | 0.621 ratio |
| CAGGGCAUUAUUUCUCGUGCUGUUAGACACCUGUUCAAGAGUAUUGAUGAGAAAAAGACCUCAGCGAUUAAAAAUGGGCUGCCCCCUCCUGAAUUCAAAGUGAAUGCCCAGUUCCUAGAG | 0.183 ratio |
| GUAUACGGUUAUCGAGGAAAGGACUGUAGAGCGAAUGUAUACCUGCUUCCCACAGGGGAGAUAGUUUAUUUUAUCGCAUCAGUAGUAGUACUAUUUAAUUAUGAGGAGAGGACUCAGCGA | 22.4 ratio |
| AGAGAUAAGACAUCCAGGAACAUGCGAGGCUCCCGGAUGAAUGGGUUGCCUAGCCCCACUCACAGCGCCCACUGUAGCUUCUACCGAACCAGAACCUUGCAGGCAUUAAGUAAUGAGAAG | 0.161 ratio |
| GAGCCAAGUCGGCAGUUUGUAAAGGACUCAAUUCGGCUGGUUAAAAGAUGCACCAAACCCGACAGAAAAGAAUUCCAGAAGAUUGCCAUGGCUACAGCUAUAGGAUUUGCUAUCAUGGGA | 0.22 ratio |
| CAGGGCAUCAUCUCUCGUGCUGUUAGACACCUUUUUAAGAGUAUUGAAGAAAAAAAAACCUCAGCGAUUAAAAACGGGCUGCCCCCUCCUGAAUUCAAAGUGAAUGCCCAGUUCCUAGAG | 0.576 ratio |
| GCAAAGGAUGAUGAGGCGGCAGCUGUUGCCCUUUCCUCUCUCGUUCAUGCUUUGGAUGACUUAGACAUGGUCGCCAUAGUUCGAUAUGCUUAUGACAAAAGAUCUAAUCCUCAAGUUGGU | 0.576 ratio |
| AAUUUCCUGUCAUACUUUUUAGACAUUCACAUCAGACUUACAGAGCACCUGGCCACAUUCUAGUUUUGUGUUAUUUCUCAGCUAUGGAUAUGAUCAAAGAGUGAAAAUGCUUAACUAAUG | 0.461 ratio |
| GCAGGAUCUUCUAAGUACCAGUGGGACAUUAUGAAAUCCCUUGGCCUCUCUGAUGACGACAUAGUGAAGUUUUCUGAAGCAGAGCACUGGCUUGAUUAUUUCCCGCCACUGGCCGUUCAG | 0.139 ratio |
| CACAGAGCAGCACCUACCCCCUCCUCCUUUCCACACCUGCAAACUCUUUUACUUGGGCUGCAUAGUUAGUGUAAUUAACAUCGCAGCUUGAGGGCUCCUGUGGCAAAUUCCCGGAUUAAA | 0.467 ratio |

Set 2 — method: RNA Bind-n-Seq; form: RNA; sample: in vitro; tested at: 365 nM; relative to: no-protein control; direction: higher = stronger binding
Target: RNA binding protein fox-1 homolog 2, RRM domain, GST-SBP tag (RBFOX2, Homo sapiens, UniProt O43251-10, residues 100-194)
Setting: natural RNA segment, single round, ends assumed
Constant ends, left off below: GGGAGUUCUACAGUCCGACGAUC … UGGAAUUCUCGGGUGCCAA
Target sequence (chain): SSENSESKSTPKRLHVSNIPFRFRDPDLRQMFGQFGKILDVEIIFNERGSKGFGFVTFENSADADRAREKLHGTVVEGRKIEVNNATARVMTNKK
| Oligonucleotide | RBNS enrichment (R) |
| --- | --- |
| CUCCGGGGCCCCUUCCUGACUCUCCCCACCUUCGCCACUUGUCUCUAGGCUAUGGGACAAUCAUCCCAUUCACCACUUGACAUCCUUGACAUCCUUGACUUUCAUUCCCC | 0.222 |
| CUCACACACAGGGGCAGCCAGUGCUUCUGGGGCCCUGGUUGGGGUUCACCCGAGAUGCCCAGGGGUACCGCCUCCAGCCUCAGGCCUGGAGCAUUCCAUCAAAGUUGGAA | 0.404 |
| GAAAGAUUCUAGAUAAGUCAGCAUUGUUUAAAUCCAAGUGCAGUGCAAGUCUGUGAACUGAUCUGUUGCACUGUCUUAUGGCUUCUUAUUCUUCAUCAUAGCUAAUUAAA | 0.868 |
| UCUCAAUCCAUUUUUAGGUAGAAAGGGUCUUAAGUGAUACUUAUGCUUUGGCAUCCAGAGCAUAAGAGAUGAAUGCAGCUACCCUGUGCCAUCCUACUAUAAUAAAUUUU | 0.701 |
| GGCCACUUGAUGACCCCCAACCAAGUGGCUCCCACACCCUGUUUUACAAAAAAGAAAAGACCAGUCCAUGAGGGAGGUUUUUAAGGGUUUGUGGAAAAUGAAAAUUAGGA | 0.564 |
| UAAGAGUUGUGCUAGAUGGCUUCCAUGAUCUUGUCAAACCUAGAAAUUCCAAAAUCUCGAGGAAGCUAGAAAACACAAUCCUGUGGCAGUAAGACAUUCUCCAGUGUUCA | 0.211 |
| UAGAAACACAAAAUAUUUGAUUUCCUGUGUCGGCUCAGCUACAAGAAACACAACUGUUAUCUUGACAGAGGAAGAGAGGAAUCCAAGAAAAAUGCAUGUGGAGAAUUAAA | 12.5 |
| AAUAUGCAUUUAGCUUUAGUUUACUGAACAGUAAACAUGCUUUUAUUUCUUGCUAUGAGAGUAUUUUGUAUGGUAUUAUUUCUUUUUUGUUGUAAGCUAACAAGUGGAGA | 0.327 |
| UAAGAUAAUUUCAGAAGUUCAGUCUAUUUUUUCAGCGGAUACUGCCGCCACCAAGAAUCCAAAACCUAUUUUUGACUUGGAGAGACUUGCUUUUGUUGGUUCCGCCCGUG | 0.403 |
| UAAAGAAAGAGCAGCCUUUGUUAAUUUACUGUGGAGUUACAACCCGCAUGCUCCCUACUCCCCCACGUCUUGAUGGAACAGGUGCAUUCAAGCUAGGAAACGGAGAGAAC | 2.11 |
| CUGCUUCACUUUCUCCAACCCUUCGUAGCUGCCUGGGCUCUUUUCCAACCUGUCAGGCUGGCGCCUUAGAACUGAGCCUUAGGUUGGGCAGCGGGUCUCUGUCCUGGUAU | 0.536 |
| CUCUGUCUCAUCCAUCAUCAUGUGUGUCCACGACUGUCUCCAUGGCCCUGCAAAAGGACUCUCAGGACCAAAGCUUUCAUGUAAACUGUGCACCAAGCAGGAAAUGAAAA | 0.436 |

Set 3 — method: protein-binding microarray; form: double-stranded DNA, one strand shown; sample: in vitro; tested at: 2540 nM top; setting: 60-bp whole probe; added: salmon DNA 0.4 mg/ml; relative to: random background probes; direction: higher = stronger binding; constant ends, left off below: GCCTAGCAC … GTCTTGATTCGCTTGACGCTGCTG
Target: Interferon regulatory factor 3, full length, phosphomimetic (IRF3, Homo sapiens, UniProt Q14653, residues 1-427, S386D/S396D/S398D/S402D/T404D/S405D)
Sequence of UniProt Q14653 (whole entry, unmodified, looked up): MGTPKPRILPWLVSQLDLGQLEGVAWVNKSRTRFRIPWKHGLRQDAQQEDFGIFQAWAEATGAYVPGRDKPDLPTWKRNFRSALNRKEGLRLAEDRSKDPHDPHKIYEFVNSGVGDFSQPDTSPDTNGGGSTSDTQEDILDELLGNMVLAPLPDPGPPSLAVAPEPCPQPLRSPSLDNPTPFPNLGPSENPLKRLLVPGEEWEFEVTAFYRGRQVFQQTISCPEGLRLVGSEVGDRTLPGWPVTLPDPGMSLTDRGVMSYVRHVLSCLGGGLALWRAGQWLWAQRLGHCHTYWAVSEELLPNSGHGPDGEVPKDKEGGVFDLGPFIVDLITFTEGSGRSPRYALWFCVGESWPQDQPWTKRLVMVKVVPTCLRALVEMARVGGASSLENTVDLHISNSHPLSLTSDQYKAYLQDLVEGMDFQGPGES
| Oligonucleotide | fitted relative affinity |
| --- | --- |
| TCATATGTATATATGTGACTGTGCTAG | 0.409 z-score |
| AACAGAGGAATGGATACAGAGTGCTAG | 0.696 z-score |
| TATGTTCCCTATTTAAGGCTGTGCTAG | 3.21 z-score |
| GACGGTCTCTGACTGGGGACGTGCTAG | -0.304 z-score |
| TTAGGTATCGGACTGGGATAGTGCTAG | 1.16 z-score |
| TCACTTTTTTTTTTTTTACTGTGCTAG | 1.39 z-score |
| CACGGTATCCTTCTCCTGACGTGCTAG | 6.83 z-score |
| CAGAGTCTAGCCATTGTGGGTGTGCTA | -0.736 z-score |
| GACGGTTTCCTACTGCTAACGTGCTAG | 5.06 z-score |
| CTAGGACTGCTTTTCCTTTAGTGCTAG | 0.877 z-score |
| GAGCCCGGGGTGTAAGCAACGTGCTAG | -1.34 z-score |
| TTAGGTTACGGTTTCGGTTAGTGCTAG | 5.51 z-score |
| AGGGTCCCGCGATTCGACACGTGCTAG | -0.721 z-score |
| GACGGTCTCGGGTTCGGGACGTGCTAG | 0.318 z-score |
| TTAGGACAGGGGACTGGGTTAGTGCTA | -0.863 z-score |
| TTAGGTTTCGACTAGCGGTTAGTGCTA | 1.76 z-score |
| AATTCTTTGCTCATTTTTCAGGTGCTA | 1.15 z-score |
| TTAGGTTTAGGACTGGGTTAGTGCTAG | -0.444 z-score |
| TTAGGTATCCTTCTCCTTAAGTGCTAG | 7.55 z-score |
| TTAGGTATCCTGCTGCTTTAGTGCTAG | 0.492 z-score |
| TTTGGTATCGGACTGGGTTAGTGCTAG | 1.6 z-score |
| TCATCACTCTGTCCCTCACTGTGCTAG | 0.0538 z-score |
| TTAGGTATCCTTTTACTTTAGTGCTAG | 7.65 z-score |
| GACGGTCTAGGTCTCGGGACGTGCTAG | -0.337 z-score |

Set 4 — method: RNA Bind-n-Seq; form: RNA; sample: in vitro; tested at: 200 nM; setting: whole 134-nt RNA, ends assumed; added: 150 mM KCl; relative to: input library; direction: higher = stronger binding
Target: Ras GTPase-activating protein-binding protein 1, full length (G3BP1, Homo sapiens, UniProt Q13283)
Sequence of UniProt Q13283 (whole entry, looked up): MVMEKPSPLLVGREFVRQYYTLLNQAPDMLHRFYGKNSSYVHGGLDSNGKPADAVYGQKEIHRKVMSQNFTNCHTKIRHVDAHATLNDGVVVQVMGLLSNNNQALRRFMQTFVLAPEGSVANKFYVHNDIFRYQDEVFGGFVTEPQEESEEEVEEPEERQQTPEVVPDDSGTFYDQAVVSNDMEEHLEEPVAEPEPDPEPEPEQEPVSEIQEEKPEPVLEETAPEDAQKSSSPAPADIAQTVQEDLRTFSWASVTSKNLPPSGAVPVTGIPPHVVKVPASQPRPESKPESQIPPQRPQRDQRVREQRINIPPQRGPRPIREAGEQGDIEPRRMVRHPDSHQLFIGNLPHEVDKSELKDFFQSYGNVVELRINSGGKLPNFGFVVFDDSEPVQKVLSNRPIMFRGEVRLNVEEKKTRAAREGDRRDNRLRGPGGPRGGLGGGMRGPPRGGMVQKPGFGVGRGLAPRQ
Constant ends, left off below: GGGAGUUCUACAGUCCGACGAUC … UGGAAUUCUCGGGUGUCAAGG
| Oligonucleotide | log2 enrichment |
| --- | --- |
| AAGUCCUGUGCUACACAUCGUAUGUACCGAAUCGGAAAAAAAGGUUUUUGGUUUGGAAAGUAUUAUGUUACGCCGUUCGGAUCUGCACUU | -1.72 |
| AGUCCUGUGCUACACAUCGUAUGUACCGAAUCAAAUUUAAACCCAAACCCCCCCAAAAAAGUAUUAUGUUACGCCGUUCGGAUCUGCACU | -0.334 |
| UAACUUUAGAGGAGGAUCUGAUGGAUAUGGCAGUGGACGUGGAUUUGGGGAUGGCUAUAAUGGGUAUGGAGGAGUACCUGGAGGUGGCAA | 0.169 |
| AAGUCCUGUGCUACACAUCGUAUGUACCGAAUCAAAUUUUUAAACCCAAAUUUAAAAAAGUAUUAUGUUACGCCGUUCGGAUCUGCACUU | -0.769 |
| CACAGACAACACGCACCCACACAGACACAGAGGGAAGGGGUUGGGAUGGGGACAGGAAACACAGCAGGGCGGGGUAGGACCCCAGCCCCU | 1.81 |
| AAGUCCUGUGCUACACAUCGUAUGUACCGAAUCGGAAAAGGGAAAAGGGAAAAGGGAAAGUAUUAUGUUACGCCGUUCGGAUCUGCACUU | -0.837 |
| GUCCUGUGCUACACAUCGUAUGUACCGAAUCAAAUUUUUAAAUUUAAACCCCCCCAAAAAAGUAUUAUGUUACGCCGUUCGGAUCUGCAC | 0.0575 |
| UGGCCCUGGUGGCAUGCGGGGAGGAAGAGGUGGCCUCAUGGAUCGUUGUGGUCCCGGUGGAAUGUUCAGAGGUGGCCGUGGUGGAGACAG | 0.189 |
| UGGAUCAAGAGGAAGUAAAAAGAAUUACCAGUCACAGGCUGACAUUCCCAUUCGGUCUCCCUUUGGUAUUGUGAAAGCAUCCUGGCUACC | -0.11 |
| AGUCCUGUGCUACACAUCGUAUGUACCGAAUCGGAAAAAGGUUUUUUUGGAAAAAGGAAAGUAUUAUGUUACGCCGUUCGGAUCUGCACU | -1.83 |

A few entries again (set 3):
| Oligonucleotide | fitted relative affinity |
| --- | --- |
| AACAGAGGAATGGATACAGAGTGCTAG | 0.696 z-score |
| AATTCTTTGCTCATTTTTCAGGTGCTA | 1.15 z-score |
| GACGGTCTAGGTCTCGGGACGTGCTAG | -0.337 z-score |
| TTAGGTATCCTGCTGCTTTAGTGCTAG | 0.492 z-score |
| CAGAGTCTAGCCATTGTGGGTGTGCTA | -0.736 z-score |
